Results collected from several papers.
Numbered parts are unrelated; each lists some results of a single study. Positions count from the first letter of the parent shown.

Block 1 — method: DHFR PCA, deep sequencing; matrix: yeast; with: (+)-ABA 17 µM; relative to: wild-type fitted maximum; reading: higher = stronger binding
Target: ABI1, truncated, D143A, DHFR fusion (Arabidopsis thaliana)
Notes: methotrexate growth selection, single substitutions
Starting sequence: PYL1, truncated, DHFR fusion (Arabidopsis thaliana); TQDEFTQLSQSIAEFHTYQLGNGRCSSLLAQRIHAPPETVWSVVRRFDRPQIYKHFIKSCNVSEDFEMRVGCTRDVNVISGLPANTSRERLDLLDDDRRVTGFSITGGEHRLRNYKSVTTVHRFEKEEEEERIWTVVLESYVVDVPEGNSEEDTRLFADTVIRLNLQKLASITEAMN; partner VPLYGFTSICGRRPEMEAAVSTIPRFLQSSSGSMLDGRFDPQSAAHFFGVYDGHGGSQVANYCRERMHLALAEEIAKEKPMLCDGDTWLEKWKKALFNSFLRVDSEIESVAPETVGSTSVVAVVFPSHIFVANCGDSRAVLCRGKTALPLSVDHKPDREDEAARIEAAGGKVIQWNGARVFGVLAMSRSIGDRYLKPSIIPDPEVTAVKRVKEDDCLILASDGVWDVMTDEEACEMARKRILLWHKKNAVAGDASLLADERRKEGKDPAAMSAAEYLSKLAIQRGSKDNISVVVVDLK
Change | relative binding score
L93I | 106%
L91R | -13.5%
A84T | 11%
S117I | -7.16%
R45N | -7.6%

Block 2 — target: CCNF, cyclin fold, Cln2 fusion (human); method: yeast growth competition, sequencing; matrix: yeast; notes: strong parent motif; relative to: not given; reading: higher = stronger binding
Starting sequence: MICAL3 docking peptide (human); LQLRRQLSFSEDS
Change | normalised enrichment score
LQLRRQLSFSELS [D12L] | 5.4
LQLPRQLSFSEDS [R4P] | 2.88
LQLRRFLSFSEDS [Q6F] | 1.79
LQLRNQLSFSEDS [R5N] | 0.223
LQLRRGLSFSEDS [Q6G] | 1.93
LQLFRQLSFSEDS [R4F] | 2.14
LQLRRQLSMSEDS [F9M] | 1.05
LQLRRQLSFSDDS [E11D] | 5.13

Block 3 — method: RNA Bind-n-Seq; form: RNA; matrix: in vitro; tested at: 365 nM; relative to: no-protein control; reading: higher = stronger binding
Target: RNA binding protein fox-1 homolog 2, RRM domain, GST-SBP tag (RBFOX2, Homo sapiens, UniProt O43251-10, residues 100-194)
Notes: natural RNA segment, single round, ends assumed
All sequences stand within: GGGAGUUCUACAGUCCGACGAUC … UGGAAUUCUCGGGUGCCAA
Construct (chain): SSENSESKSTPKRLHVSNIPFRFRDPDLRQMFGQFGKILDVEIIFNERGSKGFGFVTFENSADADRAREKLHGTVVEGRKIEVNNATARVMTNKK
Oligonucleotide | RBNS enrichment (R)
CAUCCAAGAAUUCGUCAUCACGCUGCACAGGCUGCGUCUUUGACGGUGGGUGUUCCAUUUUUAUCCGCUACUCUUUAUUUCAUGGAGUCGUAUCAACGCUAUGAACGCAA | 0.326
UCCCUCCCAGCUUUGGAAGCCUCAUCCGCGUGUGUGUGUGUGUGUAUGUGUAGACAAGCUCUCGCUCUGUCACCCAGGCUGGAGUGCAGUGGUGCAAUCAUGGUUCACUG | 0.414
AGGGAGCCUGAUGCCCCCAAUUGGUAGUGAGAAUUUGGGGACCUCCCCAACCCCCGACCCCACAAACAGGGCCUCUGUAAUCCUCCAGCUAACUUCCUACAAACAUCUGC | 0.306
AAUACAGCCUUCCAUCUUCACUCCAGUUAGGGAUCCUUUCAAAGUCUCCUUCACAGUGAGGAAAAAGAGAAGGGUAGAAACUUUAGGGAGCCGGAUUUGUGUAUCAAUUC | 0.256
UCUUUGGUUUGUGCUAGGCCCCCGGGUGUGAAGCACAGACCCCUUCCAGGGGUUUACAGUCUAUUUGAGACUCCUCAGUUCUUGCCACUUUUUUUUUUAAUCUCCACCAG | 0.676
UGUGGGUGAUGUAAACUUCAAAUUGGGAGAUGUUCCGACCCCCACUCCCAUAUAAGCAUUCAAUCAGUGUAACUUGCAAAAUGCAUAAACAUCCGACAGUUUGAAUUUAU | 0.621
CUGGUUUUUCCUUGCCCCUGUGUGAAAAUAGGUCCUAAAUGACUGACUUCACUGCAUUAGACCCUAUAGCUGGUCUCACAAGACACUUUGUGCCCAGCUGUCACUCACUC | 0.707
CUUUUCCUCGUUACCAGUGUGUGAUGUCACAACUGAAACUUGUGUUAGUAACGUCUAAGGCCAUGUUGCCUUUGUCUUUAGAGUAAUUCCUGGCUGUGCCUACCACUCCU | 0.238

Other studies, line by line
Substance | target | assay | test system | setting | scale | endpoint | value
PhoQ, residues 284 288 289 292 302 303 SIHLQL | PhoP, residues 12 14 15 18 19 LHSVW (Escherichia coli, UniProt P23836) | Sort-seq, item: YFP reporter | E. coli | PhoQ-PhoP variant library, with: 10 µM Mg2+ | relative to: high Mg2+ state, higher = stronger signaling | fold induction | 1.19
